{"data": "Results from different studies", "note": "Every numbered part comes from another study and shows a few of its results, in no order.", "sequence of UniProt Q9C8N7 (whole entry, looked up)": "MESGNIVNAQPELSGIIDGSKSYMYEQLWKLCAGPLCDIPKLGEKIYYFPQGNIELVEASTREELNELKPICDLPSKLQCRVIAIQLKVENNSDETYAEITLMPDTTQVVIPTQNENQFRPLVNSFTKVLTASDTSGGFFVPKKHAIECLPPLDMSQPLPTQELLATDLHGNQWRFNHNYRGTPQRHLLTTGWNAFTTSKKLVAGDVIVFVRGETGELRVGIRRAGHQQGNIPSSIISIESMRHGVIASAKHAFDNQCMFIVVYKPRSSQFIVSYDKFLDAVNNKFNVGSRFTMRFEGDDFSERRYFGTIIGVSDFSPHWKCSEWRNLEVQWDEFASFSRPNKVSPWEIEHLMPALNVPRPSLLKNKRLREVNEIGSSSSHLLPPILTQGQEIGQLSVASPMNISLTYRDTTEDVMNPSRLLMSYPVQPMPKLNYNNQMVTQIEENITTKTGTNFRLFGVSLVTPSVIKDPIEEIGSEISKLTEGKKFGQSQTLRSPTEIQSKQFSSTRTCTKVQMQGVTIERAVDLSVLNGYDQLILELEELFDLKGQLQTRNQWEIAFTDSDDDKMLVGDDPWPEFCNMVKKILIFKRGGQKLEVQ"}
{"data": "Block 1", "target": "PABPC1L2, full length, GST fusion (mouse, UniProt A0ABA7IW68)", "technique": "RNAcompete", "form": "RNA", "medium": "in vitro", "concentration": "20 nM", "setting": "7-mer, probes averaged, single round", "baseline": "mean of 7-mers", "direction": "higher = stronger binding", "Residues (chain)": "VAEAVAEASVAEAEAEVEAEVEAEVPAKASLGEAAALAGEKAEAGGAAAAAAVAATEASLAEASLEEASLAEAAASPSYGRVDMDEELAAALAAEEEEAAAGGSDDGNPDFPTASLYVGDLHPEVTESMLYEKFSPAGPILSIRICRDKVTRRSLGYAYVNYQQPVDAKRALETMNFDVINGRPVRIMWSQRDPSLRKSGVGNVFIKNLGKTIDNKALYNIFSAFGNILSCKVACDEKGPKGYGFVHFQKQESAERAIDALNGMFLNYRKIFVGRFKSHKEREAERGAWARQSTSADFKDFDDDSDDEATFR"}
{"Sequence": "UGUUUGG", "7-mer Z-score": -0.449}
{"Sequence": "CAAAUAA", "7-mer Z-score": 0.867}
{"Sequence": "ACCCCUG", "7-mer Z-score": -0.289}
{"Sequence": "AUACCUU", "7-mer Z-score": -0.291}
{"Sequence": "GGUAGCU", "7-mer Z-score": -0.0337}
{"Sequence": "AUCACAG", "7-mer Z-score": -0.199}
{"Sequence": "AGAAGCG", "7-mer Z-score": -0.0772}
{"Sequence": "UUCGUGG", "7-mer Z-score": -0.306}
{"data": "Block 2", "target": "Sal-like protein 4, full length isoform B (SALL4, Homo sapiens, UniProt Q9UJQ4-2, residues 1-616)", "technique": "universal PBM", "form": "double-stranded DNA, one strand shown", "medium": "in vitro", "concentration": "not given", "setting": "8-mer, flanks averaged, mean of replicates", "direction": "higher = stronger binding", "Residues (chain)": "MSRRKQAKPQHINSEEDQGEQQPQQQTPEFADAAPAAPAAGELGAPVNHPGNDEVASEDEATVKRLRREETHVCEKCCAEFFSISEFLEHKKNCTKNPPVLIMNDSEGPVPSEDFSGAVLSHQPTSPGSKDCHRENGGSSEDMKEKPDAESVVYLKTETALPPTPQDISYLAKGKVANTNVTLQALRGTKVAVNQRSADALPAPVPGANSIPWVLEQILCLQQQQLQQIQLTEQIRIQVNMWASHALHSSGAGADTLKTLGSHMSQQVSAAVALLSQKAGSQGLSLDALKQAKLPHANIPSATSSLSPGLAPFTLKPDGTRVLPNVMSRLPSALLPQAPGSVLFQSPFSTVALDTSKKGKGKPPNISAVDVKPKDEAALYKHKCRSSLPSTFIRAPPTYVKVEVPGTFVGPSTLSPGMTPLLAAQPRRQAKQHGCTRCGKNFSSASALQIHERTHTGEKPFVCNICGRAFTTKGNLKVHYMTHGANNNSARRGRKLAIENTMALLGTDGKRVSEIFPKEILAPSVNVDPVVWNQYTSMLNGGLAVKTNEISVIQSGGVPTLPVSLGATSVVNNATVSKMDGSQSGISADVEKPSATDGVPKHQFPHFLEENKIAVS"}
{"Sequence": "CCCTCCTC", "E-score": -0.255}
{"Sequence": "CCTTGCCA", "E-score": 0.0674}
{"Sequence": "ATACCCTA", "E-score": 0.148}
{"Sequence": "CCGCAGCA", "E-score": -0.168}
{"Sequence": "ACAACCTA", "E-score": -0.0252}
{"Sequence": "ATCCCAAA", "E-score": 0.0814}
{"Sequence": "CGTGAGAA", "E-score": -0.0889}
{"Sequence": "AACAACAC", "E-score": 0.128}
{"data": "Mixed results", "B1": "ARF17 (Arabidopsis thaliana, UniProt Q84WU6); chain MSPPSATAGDINHREVDPTIWRACAGASVQIPVLHSRVYYFPQGHVEHCCPLLSTLPSSTSPVPCIITSIQLLADPVTDEVFAHLILQPMTQQQFTPTNYSRFGRFDGDVDDNNKVTTFAKILTPSDANNGGGFSVPRFCADSVFPLLNFQIDPPVQKLYVTDIHGAVWDFRHIYRGTPRRHLLTTGWSKFVNSKKLIAGDSVVFMRKSADEMFIGVRRTPISSSDGGSSYYGGDEYNGYYSQSSVAKEDDGSPKKTFRRSGNGKLTAEAVTDAINRASQGLPFEVVFYPAAGWSEFVVRAEDVESSMSMYWTPGTRVKMAMETEDSSRITWFQGIVSSTYQETGPWRGSPWKQLQITWDEPEILQNVKRVNPWQVEIAAHATQLHTPFPPAKRLKYPQPGGGFLSGDDGEILYPQSGLSSAAAPDPSPSMFSYSTFPAGMQGARQYDFGSFNPTGFIGGNPPQLFTNNFLSPLPDLGKVSTEMMNFGSPPSDNLSPNSNTTNLSSGNDLVGNRGPLSKKVNSIQLFGKIITVEEHSESGPAESGLCEEDGSKESSDNETQLSLSHAPPSVPKHSNSNAGSSSQG"}
{"Molecule": "HAEQGLIQY", "tested on": "HLA class I histocompatibility antigen, A alpha chain, allele A*80:01 (Homo sapiens, UniProt P04439)", "assay": "peptide-MHC binding", "test system": "peptide", "setting": "concentration not given", "quantity": "binding", "result": "inactive"}
{"Molecule": "B1 (ARF17)", "tested on": "ARF22 498-598 (Arabidopsis thaliana, UniProt Q9C8N7)", "assay": "two-hybrid", "setting": "weak activation fusion", "scale": "baseline: out of 4 tests, higher = firmer interaction", "quantity": "positive tests", "result": 1}
{"note": "Some of these lines once more (block 1):"}
{"Sequence": "AUACCUU", "7-mer Z-score": -0.291}
